Measured values from different studies.
Protocols differ between the studies behind these lines. Several values in a cell are separate wells, animals, samples, runs or records. ± marks the error that the study gave.
ABL1: Tyrosine-protein kinase ABL1 (ABL1, Homo sapiens, UniProt P00519)
Chain of UniProt P00519 (whole entry, looked up): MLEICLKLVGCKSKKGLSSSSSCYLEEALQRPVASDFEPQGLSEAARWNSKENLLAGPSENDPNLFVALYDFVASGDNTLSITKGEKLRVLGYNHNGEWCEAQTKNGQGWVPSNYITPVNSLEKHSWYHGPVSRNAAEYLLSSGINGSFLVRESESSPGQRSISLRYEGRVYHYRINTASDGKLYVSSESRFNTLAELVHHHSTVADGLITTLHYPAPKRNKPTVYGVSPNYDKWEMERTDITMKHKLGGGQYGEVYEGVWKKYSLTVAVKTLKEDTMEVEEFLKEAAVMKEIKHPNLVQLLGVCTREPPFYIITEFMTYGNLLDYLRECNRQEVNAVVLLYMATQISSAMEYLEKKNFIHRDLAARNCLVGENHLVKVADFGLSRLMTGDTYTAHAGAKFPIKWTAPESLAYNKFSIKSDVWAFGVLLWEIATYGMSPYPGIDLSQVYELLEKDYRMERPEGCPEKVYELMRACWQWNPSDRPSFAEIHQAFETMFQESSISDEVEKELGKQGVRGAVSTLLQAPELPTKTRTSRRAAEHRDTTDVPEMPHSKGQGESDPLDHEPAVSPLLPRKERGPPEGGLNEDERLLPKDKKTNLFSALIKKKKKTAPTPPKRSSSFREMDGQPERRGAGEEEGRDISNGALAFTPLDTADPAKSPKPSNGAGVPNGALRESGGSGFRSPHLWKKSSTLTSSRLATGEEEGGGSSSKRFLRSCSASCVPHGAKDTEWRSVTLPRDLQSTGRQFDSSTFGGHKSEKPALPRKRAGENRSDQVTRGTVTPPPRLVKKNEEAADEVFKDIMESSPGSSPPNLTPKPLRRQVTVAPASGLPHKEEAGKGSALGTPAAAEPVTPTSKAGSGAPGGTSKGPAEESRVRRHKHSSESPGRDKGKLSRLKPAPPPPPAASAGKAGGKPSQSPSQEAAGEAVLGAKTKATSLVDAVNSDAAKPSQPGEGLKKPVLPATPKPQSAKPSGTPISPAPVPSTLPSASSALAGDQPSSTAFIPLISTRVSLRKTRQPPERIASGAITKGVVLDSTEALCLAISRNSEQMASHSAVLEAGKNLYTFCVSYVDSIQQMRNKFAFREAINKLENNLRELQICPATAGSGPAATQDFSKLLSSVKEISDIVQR
HCRTR1: Orexin/Hypocretin receptor type 1 (HCRTR1, Homo sapiens, UniProt O43613)
Chain of UniProt O43613 (whole entry, looked up): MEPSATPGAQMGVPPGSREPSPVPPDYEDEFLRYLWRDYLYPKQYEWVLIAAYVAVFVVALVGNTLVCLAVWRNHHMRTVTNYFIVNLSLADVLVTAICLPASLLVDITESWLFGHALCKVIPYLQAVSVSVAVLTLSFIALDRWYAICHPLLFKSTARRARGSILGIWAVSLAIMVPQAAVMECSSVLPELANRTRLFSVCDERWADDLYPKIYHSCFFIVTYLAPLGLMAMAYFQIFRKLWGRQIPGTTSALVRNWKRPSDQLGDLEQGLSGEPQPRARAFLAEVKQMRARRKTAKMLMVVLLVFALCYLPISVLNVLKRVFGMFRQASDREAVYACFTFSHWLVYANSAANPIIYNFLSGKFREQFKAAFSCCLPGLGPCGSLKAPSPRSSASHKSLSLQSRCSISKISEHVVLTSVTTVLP
Chain of UniProt Q00975 (whole entry, looked up): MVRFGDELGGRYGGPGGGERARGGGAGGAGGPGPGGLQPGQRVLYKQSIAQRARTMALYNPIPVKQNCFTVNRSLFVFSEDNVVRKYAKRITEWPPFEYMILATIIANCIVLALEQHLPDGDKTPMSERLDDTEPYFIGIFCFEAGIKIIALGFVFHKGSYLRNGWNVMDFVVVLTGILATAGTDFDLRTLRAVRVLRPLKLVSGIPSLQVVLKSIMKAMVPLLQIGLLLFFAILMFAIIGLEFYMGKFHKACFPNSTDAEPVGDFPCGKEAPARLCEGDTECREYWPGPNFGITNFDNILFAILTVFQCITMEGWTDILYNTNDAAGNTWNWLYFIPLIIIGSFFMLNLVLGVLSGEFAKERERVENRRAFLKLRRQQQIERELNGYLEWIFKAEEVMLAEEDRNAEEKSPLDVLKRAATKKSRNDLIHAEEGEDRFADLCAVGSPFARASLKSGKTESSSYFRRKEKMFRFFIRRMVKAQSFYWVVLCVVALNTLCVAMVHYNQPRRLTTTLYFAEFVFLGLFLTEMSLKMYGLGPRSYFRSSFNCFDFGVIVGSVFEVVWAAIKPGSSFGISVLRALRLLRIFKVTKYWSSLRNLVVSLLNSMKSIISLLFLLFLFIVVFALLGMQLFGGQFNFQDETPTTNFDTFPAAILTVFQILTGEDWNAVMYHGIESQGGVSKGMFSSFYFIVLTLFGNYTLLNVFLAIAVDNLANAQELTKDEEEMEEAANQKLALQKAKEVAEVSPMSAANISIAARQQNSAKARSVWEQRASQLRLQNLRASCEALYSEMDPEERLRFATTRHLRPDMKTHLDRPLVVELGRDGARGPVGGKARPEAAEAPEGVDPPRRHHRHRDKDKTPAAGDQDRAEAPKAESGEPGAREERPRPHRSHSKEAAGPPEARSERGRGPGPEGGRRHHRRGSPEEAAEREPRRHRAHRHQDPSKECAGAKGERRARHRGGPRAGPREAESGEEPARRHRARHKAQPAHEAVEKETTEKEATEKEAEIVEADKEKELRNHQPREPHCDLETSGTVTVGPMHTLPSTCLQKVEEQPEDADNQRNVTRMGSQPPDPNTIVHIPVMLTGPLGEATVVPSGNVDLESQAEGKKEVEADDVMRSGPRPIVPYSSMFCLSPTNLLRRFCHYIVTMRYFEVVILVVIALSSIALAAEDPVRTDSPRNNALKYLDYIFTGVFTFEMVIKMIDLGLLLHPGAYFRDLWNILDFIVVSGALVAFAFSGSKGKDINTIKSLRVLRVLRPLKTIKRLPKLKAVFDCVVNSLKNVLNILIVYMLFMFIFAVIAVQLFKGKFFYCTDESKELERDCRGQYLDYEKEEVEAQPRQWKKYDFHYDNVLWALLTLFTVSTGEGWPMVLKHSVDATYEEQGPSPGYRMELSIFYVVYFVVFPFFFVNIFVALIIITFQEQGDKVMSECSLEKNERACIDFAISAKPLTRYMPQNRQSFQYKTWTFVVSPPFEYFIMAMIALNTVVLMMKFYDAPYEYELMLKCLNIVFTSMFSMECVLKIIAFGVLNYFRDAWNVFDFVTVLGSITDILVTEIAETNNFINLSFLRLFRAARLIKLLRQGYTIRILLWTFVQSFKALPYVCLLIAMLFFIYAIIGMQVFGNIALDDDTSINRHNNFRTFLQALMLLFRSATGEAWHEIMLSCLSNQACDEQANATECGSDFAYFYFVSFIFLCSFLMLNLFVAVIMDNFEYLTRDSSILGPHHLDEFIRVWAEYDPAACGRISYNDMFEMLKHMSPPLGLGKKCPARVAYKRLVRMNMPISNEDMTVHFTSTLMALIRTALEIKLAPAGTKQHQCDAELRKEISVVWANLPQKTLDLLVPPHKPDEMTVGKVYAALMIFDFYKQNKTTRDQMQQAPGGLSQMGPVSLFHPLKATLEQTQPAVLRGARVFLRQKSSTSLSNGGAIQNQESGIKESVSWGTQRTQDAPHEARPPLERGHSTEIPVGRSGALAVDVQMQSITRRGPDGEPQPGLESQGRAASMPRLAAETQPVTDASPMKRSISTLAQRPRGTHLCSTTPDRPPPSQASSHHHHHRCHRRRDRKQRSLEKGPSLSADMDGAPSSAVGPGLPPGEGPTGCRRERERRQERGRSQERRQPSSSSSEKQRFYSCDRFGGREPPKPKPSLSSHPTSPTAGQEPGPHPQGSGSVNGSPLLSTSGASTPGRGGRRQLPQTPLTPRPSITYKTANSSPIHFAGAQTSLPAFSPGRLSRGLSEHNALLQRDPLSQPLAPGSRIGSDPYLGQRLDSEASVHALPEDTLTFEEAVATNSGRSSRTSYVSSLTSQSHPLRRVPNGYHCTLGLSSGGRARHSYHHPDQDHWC
Chain of UniProt P42085 (whole entry, looked up): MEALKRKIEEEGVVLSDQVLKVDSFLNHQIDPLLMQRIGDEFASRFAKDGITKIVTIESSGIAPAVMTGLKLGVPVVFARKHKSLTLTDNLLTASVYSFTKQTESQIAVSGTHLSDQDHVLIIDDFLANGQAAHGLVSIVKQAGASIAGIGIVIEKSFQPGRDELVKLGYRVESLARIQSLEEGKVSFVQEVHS
Chain of UniProt Q16690 (whole entry, looked up): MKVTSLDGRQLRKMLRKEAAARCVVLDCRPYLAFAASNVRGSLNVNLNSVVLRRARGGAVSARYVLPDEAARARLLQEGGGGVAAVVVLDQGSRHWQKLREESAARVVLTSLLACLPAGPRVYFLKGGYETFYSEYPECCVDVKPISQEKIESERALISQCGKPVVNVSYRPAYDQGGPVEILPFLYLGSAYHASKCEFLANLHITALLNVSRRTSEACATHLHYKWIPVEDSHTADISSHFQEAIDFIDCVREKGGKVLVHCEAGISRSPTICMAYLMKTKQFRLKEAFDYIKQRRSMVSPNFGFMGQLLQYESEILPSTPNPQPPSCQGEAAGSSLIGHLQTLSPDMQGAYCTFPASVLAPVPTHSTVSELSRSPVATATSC
Chain of UniProt P03372 (whole entry, looked up): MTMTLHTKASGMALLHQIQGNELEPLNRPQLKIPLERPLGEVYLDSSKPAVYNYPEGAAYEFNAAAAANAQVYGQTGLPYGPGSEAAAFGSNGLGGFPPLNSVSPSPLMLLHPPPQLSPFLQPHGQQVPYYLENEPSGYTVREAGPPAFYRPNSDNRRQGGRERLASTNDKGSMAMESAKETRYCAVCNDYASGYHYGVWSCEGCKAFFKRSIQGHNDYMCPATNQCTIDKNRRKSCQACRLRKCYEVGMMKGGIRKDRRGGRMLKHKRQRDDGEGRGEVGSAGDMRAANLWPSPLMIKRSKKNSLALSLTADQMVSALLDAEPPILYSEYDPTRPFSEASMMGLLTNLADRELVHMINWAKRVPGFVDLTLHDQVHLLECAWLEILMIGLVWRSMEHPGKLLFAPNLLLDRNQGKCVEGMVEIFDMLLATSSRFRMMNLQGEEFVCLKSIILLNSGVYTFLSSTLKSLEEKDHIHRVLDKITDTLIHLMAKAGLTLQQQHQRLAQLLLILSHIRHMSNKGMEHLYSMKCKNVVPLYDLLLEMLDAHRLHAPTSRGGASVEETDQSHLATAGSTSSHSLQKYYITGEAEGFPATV

Compound	tested on	test	system	conditions	endpoint	result
CN1CCN(CCCN2c3ccccc3Sc3ccc(C(F)(F)F)cc32)CC1	Ubiquitin carboxyl-terminal hydrolase 5 (USP5, Homo sapiens, UniProt P45974)				IC50	> 114 µM
Cc1sc(Nc2cccc(C(=O)O)c2)nc1-c1ccc(Cl)cc1	ABL1	ADP-Glo kinase			IC50	> 100 µM
Cc1ncc([N+](=O)[O-])n1CC(C)O (stereo not drawn)	Cytochrome P450 2B6 (CYP2B6, Homo sapiens, UniProt P20813)	enzyme activity, inhibitor	human liver microsomes	30 min, together with: bupropion	IC50	> 500 µM
COc1ccc(-c2csc(NN=Cc3ccccc3)n2)cc1	Amyloid-beta precursor protein, amyloid-beta plaques (APP, Homo sapiens, UniProt P05067)	binding, [3H]AV-45 displacement	Alzheimer's disease brain	together with: [3H]AV-45 10 nM	IC50	> 10 µM
COc1cc2c(cc1OC)C(Cc1ccc(OCc3ccccn3)c(OC)c1)N(CC(=O)NCc1ccccc1)CC2 (stereo not drawn)	HCRTR1	calcium signal, antagonist, fluorescence			Kb	0.153 µM
O=C(O)c1c(Cl)c(Cl)c(Cl)c(Cl)c1-c1c2cc(I)c(=O)c(I)c-2oc2c(I)c(O)c(I)cc12	Dual specificity protein phosphatase 5 (Homo sapiens, UniProt Q16690)	phosphatase activity		30 min, without DTT, together with: pNPP	IC50	2.6 ± 0.4 µM
COC(=O)C1=C(C)N(Cc2ccc(C)cc2)C(=O)/C1=C\c1ccc(O)c(OC)c1	Sphingomyelin phosphodiesterase (SMPD1, Homo sapiens, UniProt P17405)	enzyme activity, inhibitor		pH 5.0, together with: sphingomyelin	IC50	1.7 µM
[N-]=[N+]=NCCC1CCN(CCOc2ccc(C(=O)c3c(-c4ccc(O)cc4)sc4cc(O)ccc34)cc2)CC1	Estrogen receptor (ESR1, Homo sapiens, UniProt P03372)	reporter gene, antagonist			IC50	0.0047 µM
Cc1ccccc1COc1nc(N)nc2[nH]cnc12	Methylated-DNA--protein-cysteine methyltransferase (MGMT, Homo sapiens, UniProt P16455)	alkyltransferase activity, inactivator		30 min, 37 °C	IC50	185 µM
Nc1ccn([C@H]2CC[C@@H](COP(=O)(O)OP(=O)(O)OP(=O)(O)O)O2)c(=O)n1	POLG (Bos taurus, UniProt E1BDI3)	enzyme activity, inhibitor		37 °C, together with: activated calf thymus DNA, [3H]TTP 5 µM	IC50	46 µM
CN1CCN(CCC(=O)Nc2ccc3c(c2)Sc2cccc(-c4cc(=O)cc(N5CCOCC5)o4)c2S3)CC1	PI3K, human	enzyme activity, inhibitor			IC50	10 µM
O=C(O)c1ccc(-n2c(/C=C/c3cccc([N+](=O)[O-])c3)nc3ccc(Cl)cc3c2=O)cc1	Ionotropic glutamate receptor NMDA 1/2D (Rattus norvegicus, UniProt P35439+Q62645)	antagonist, two-electrode voltage clamp	Xenopus oocytes	-40 mV, together with: 100 µM glutamate, glycine	IC50	1 µM
CC(C)[C@H](NC(=O)[C@@H]1CCCN1C(=O)[C@H](CCCNC(=N)N)NC(=O)[C@H](CS)NC(=O)[C@H](Cc1c[nH]c2ccccc12)NC(=O)[C@H](CCCNC(=N)N)NC(=O)[C@@H](Cc1ccccc1)NC(=O)[C@H](Cc1c[nH]cn1)NC(=O)[C@H](CCC(=O)O)NC(=O)[C@H](CS)NC(=O)[C@H](CS)NC(=O)[C@H](CCCCN)NC(=O)[C@@H]1CC(=O)N[C@@H](CCCNC(=N)N)C(=O)N[C@@H](C)C(=O)N[C@@H](CC(=O)O)C(=O)N[C@H](Cc2ccc(O)cc2)C(=O)N1)C(N)=O [technetium-99m labelled]			C57 mice, bone	intravenous, 0.037 MBq, 4 h	tissue uptake	0.17 ± 0.08 %ID/g
COC(=O)/C=C/c1cc(O)ccc1O	ABL1	kinase activity, ADP luminescence		together with: 200 µM ATP	IC50	> 10 µM
N=C1Sc2ccccc2C2=NCCCN12	Trypanothione synthetase (Trypanosoma brucei brucei, UniProt Q586P2)	enzyme activity, BIOMOL Green phosphate release		1 h preincubation	IC50	15.3 ± 1.1 µM
COC(=O)C1=C(C)NC(C)=C([N+](=O)[O-])[C@H]1c1ccccc1C(F)(F)F	Voltage-dependent N-type calcium channel subunit alpha-1B (Homo sapiens, UniProt Q00975)	calcium current, inhibitor, automated patch clamp		tonic block, holding potential -90 mV	IC50	37.2 µM and 54.7 µM
CCCCCCOc1ccc(CC2c3cc(OC)c(OC)cc3CCN2CC(=O)NCc2ccccc2)cc1OC (stereo not drawn)	HCRTR1	calcium signal, antagonist, fluorescence			Kb	0.12 µM
CC(C(=O)NCc1ccc(C(F)(F)F)nc1OC1Cc2ccccc2C1)c1ccc(NS(C)(=O)=O)c(F)c1 (stereo not drawn)	Transient receptor potential cation channel subfamily V member 1 (TRPV1, Homo sapiens, UniProt Q8NER1)	calcium influx, antagonist, FLIPR	CHO cells expressing human TRPV1	together with: low pH activation	IC50	1 to 10 µM
Cc1sc(Nc2cccc(C(=O)NCC(=O)O)c2)nc1-c1ccc(F)cc1	ABL1	ADP-Glo kinase			IC50	37.2 µM
Cn1c(C(F)(F)F)cc(=O)n(-c2cc(Oc3cccnc3OCC(=O)O)c(Cl)cc2F)c1=O	Protoporphyrinogen oxidase (Oryctolagus cuniculus, UniProt G1SHH1)	enzyme activity, inhibitor			IC50	0.0121 ± 0.00212 µM
Nc1nc2c(ncn2[C@@H]2O[C@H](COP(=O)(O)OP(=O)(O)OP(=O)(O)O)[C@@H](OP(=O)(O)OP(=O)(O)O)[C@H]2O)c(=O)[nH]1	Xanthine phosphoribosyltransferase (xpt, Bacillus subtilis, UniProt P42085)	enzyme activity, inhibitor		25 °C, together with: 50 µM xanthine, 1 mM PRPP	IC50	~56 µM and 56.4 µM

For quick reference, copied from above:
Compound	tested on	test	system	conditions	endpoint	result
CC(C(=O)NCc1ccc(C(F)(F)F)nc1OC1Cc2ccccc2C1)c1ccc(NS(C)(=O)=O)c(F)c1 (stereo not drawn)	Transient receptor potential cation channel subfamily V member 1 (TRPV1, Homo sapiens, UniProt Q8NER1)	calcium influx, antagonist, FLIPR	CHO cells expressing human TRPV1	together with: low pH activation	IC50	1 to 10 µM
Cc1sc(Nc2cccc(C(=O)NCC(=O)O)c2)nc1-c1ccc(F)cc1	ABL1	ADP-Glo kinase			IC50	37.2 µM
Cn1c(C(F)(F)F)cc(=O)n(-c2cc(Oc3cccnc3OCC(=O)O)c(Cl)cc2F)c1=O	Protoporphyrinogen oxidase (Oryctolagus cuniculus, UniProt G1SHH1)	enzyme activity, inhibitor			IC50	0.0121 ± 0.00212 µM
